Results from different studies.
Protocols differ between the studies behind these lines.
Target: Acetylcholinesterase (ACHE, Homo sapiens, UniProt P22303)
Sequence of UniProt P22303 (whole entry, looked up): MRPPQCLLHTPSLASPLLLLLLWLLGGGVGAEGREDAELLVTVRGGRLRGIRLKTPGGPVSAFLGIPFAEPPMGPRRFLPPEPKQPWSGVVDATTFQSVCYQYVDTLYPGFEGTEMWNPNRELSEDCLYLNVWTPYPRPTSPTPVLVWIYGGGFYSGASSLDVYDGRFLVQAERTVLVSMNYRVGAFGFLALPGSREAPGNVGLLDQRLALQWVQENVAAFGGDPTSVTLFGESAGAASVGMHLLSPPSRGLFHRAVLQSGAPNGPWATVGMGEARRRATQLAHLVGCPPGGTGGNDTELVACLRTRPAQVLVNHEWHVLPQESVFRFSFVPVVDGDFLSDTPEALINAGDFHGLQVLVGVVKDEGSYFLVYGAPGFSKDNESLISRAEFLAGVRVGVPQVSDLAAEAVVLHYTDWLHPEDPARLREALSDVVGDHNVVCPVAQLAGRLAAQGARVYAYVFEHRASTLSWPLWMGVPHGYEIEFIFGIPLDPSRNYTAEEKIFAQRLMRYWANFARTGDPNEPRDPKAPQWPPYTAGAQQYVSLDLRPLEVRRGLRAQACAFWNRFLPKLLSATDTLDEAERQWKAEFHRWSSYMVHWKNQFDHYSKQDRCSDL

CN(C(=O)n1cnc(-c2ccc[n+]([O-])c2)c1)C1CCCCC1 — inhibition (10 µM): -3.04%
C=CCN1CC[C@]23c4c5ccc(O)c4O[C@H]2C(=O)CC[C@]3(O)[C@H]1C5 — inhibition (concentration not given): 4.5%
CCC1=C[C@@H]2CN3CCc4c([nH]c5ccccc45)[C@@](C(=O)OC)(C2)[C@@H]13 — IC50 (enzyme activity, inhibitor): inactive
C=CC[N+]1([C@H]2C[C@H]3[C@@H]4CC[C@H]5C[C@H](OC(C)=O)[C@@H](N6CCCCC6)C[C@]5(C)[C@H]4CC[C@]3(C)[C@H]2OC(=O)CC)CCCCC1 — IC50/Cmax ratio (relative to: IC50 over human plasma Cmax): < 10
C[C@H]1COCCN1c1nc(NCc2cccnc2C(F)(F)F)c2cccnc2n1 — IC50 (binding; CEREP panel): > 100 µM
COc1cc(C(=O)NCc2ccc(OCCN(C)C)cc2)cc(OC)c1OC — IC50/Cmax ratio (relative to: IC50 over human plasma Cmax): < 10
C[C@@H](C1=C(CCN(C)C)Cc2ccccc21)c1ccccn1.O=C(O)/C=C\C(=O)O — IC50 (enzyme activity, inhibitor): inactive
O=c1cc(CSc2ccc(N=Cc3ccc(Br)cc3)cc2)occ1O — Kis (inhibitor, enzyme kinetics): 1.81 µM
O=C(NCCCCN1CCN(c2cccc(Cl)c2Cl)CC1)c1cc2ccccc2s1 — IC50 (enzyme activity, inhibitor): inactive
O=c1ccc2ccccc2o1 — inhibition (enzyme activity; 10 µM, SafetyScreen44): 19.9%

Repeated from above:
C[C@H]1COCCN1c1nc(NCc2cccnc2C(F)(F)F)c2cccnc2n1 — IC50 (binding; CEREP panel): > 100 µM
COc1cc(C(=O)NCc2ccc(OCCN(C)C)cc2)cc(OC)c1OC — IC50/Cmax ratio (relative to: IC50 over human plasma Cmax): < 10
